Measured values pooled from the literature.
Each numbered part is a random draw from the data of one study; scales do not carry over between parts.

Sample 1 — method: protein-binding microarray; molecule type: double-stranded DNA, one strand shown; matrix: in vitro; tested at: 250 nM; setting: 60-bp whole probe; added: salmon DNA 0.4 mg/ml; relative to: random background probes; direction: higher = stronger binding; shared flanks, not repeated: GCCTAGCAC … GTCTTGATTCGCTTGACGCTGCTG
Target: Interferon regulatory factor 7, full length, phosphomimetic (IRF7, Homo sapiens, UniProt Q92985, residues 1-503, S101K/S471D/S472D/S475D/S476D/S477D/S483D/S484D/S487D)
Sequence of UniProt Q92985 (whole entry, unmodified, looked up): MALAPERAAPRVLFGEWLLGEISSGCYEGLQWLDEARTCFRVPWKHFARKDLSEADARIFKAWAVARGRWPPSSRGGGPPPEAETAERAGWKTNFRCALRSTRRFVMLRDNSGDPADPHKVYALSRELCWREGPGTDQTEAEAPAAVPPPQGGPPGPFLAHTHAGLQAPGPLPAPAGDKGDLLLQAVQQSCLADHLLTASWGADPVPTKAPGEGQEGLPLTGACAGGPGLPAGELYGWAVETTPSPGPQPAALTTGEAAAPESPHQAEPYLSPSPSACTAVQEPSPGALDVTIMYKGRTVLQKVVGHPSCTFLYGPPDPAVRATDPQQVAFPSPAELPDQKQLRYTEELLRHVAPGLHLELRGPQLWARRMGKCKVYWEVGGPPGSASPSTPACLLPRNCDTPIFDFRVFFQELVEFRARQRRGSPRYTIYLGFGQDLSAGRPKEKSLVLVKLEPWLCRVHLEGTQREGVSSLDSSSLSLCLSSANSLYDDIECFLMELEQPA
Sequence | log fluorescence [z-score]
TGATAAATCTTTGTTGGAGGGGTGCTA | -0.419
GACGGACTGCTTATCCTGATGTGCTAG | -0.392
TCACTTATCCTTCCCCTACTGTGCTAG | 1.44
TTAGGTATCGACTATCGATTAGTGCTA | 0.683
TTAGATTTCGTGTTTCGATTAGTGCTA | 5.29

Sample 2 — method: universal PBM; molecule type: double-stranded DNA, one strand shown; matrix: in vitro; tested at: 600 nM; direction: higher = stronger binding
Target: Sal-like protein 4, full length isoform A (SALL4, Homo sapiens, UniProt Q9UJQ4, residues 1-1053)
Sequence of UniProt Q9UJQ4 (whole entry, looked up): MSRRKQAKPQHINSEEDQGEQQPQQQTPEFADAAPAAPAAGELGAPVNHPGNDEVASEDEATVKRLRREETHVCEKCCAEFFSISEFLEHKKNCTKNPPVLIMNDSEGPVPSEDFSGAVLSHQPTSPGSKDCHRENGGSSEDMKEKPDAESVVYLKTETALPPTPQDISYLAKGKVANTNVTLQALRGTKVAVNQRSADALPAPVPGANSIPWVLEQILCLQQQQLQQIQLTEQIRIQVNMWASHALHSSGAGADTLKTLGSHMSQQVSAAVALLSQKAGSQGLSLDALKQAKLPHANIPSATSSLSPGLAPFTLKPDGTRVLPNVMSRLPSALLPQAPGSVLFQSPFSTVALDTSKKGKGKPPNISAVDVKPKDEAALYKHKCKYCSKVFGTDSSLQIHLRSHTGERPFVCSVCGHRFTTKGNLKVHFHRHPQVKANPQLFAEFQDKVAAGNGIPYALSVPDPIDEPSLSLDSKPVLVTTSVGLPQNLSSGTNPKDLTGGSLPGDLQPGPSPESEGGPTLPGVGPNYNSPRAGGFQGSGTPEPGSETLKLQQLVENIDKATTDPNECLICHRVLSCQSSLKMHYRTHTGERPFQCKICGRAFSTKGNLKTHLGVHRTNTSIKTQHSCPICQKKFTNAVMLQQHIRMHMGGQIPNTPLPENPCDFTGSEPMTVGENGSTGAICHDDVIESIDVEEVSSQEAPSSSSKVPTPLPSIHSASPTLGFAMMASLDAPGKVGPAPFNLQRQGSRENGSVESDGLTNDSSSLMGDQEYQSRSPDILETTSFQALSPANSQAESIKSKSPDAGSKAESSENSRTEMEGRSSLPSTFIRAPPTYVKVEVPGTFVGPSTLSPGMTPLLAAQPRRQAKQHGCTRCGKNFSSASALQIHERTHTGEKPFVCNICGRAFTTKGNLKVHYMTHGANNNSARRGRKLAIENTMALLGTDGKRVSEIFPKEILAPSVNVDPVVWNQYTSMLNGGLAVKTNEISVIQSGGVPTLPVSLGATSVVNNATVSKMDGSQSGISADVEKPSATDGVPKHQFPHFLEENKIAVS
Setting: 8-mer, flanks averaged, mean of replicates
Sequence | E-score
ACGCCTGA | -0.0448
CAGTTATC | 0.145
ACCCCTTA | -0.0335
GCGTGTTA | 0.0906
CTGGGGGA | -0.228
ATCCCATG | -0.0938
CTATTGTC | -0.0109

Sample 3 — method: protein binding microarray; molecule type: double-stranded DNA, one strand shown; matrix: in vitro; tested at: not given; relative to: not given; direction: higher = stronger binding
Target: Histone acetyltransferase KAT6A, winged helix 2, GST fusion (KAT6A, Homo sapiens, UniProt Q92794, residues 85-181)
Setting: 8-mer, flanks averaged, mean of 2 arrays, mostly near background
Residues (chain): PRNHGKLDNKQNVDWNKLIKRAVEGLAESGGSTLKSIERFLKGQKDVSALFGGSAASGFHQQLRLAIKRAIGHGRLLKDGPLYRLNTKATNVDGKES
Sequence | E-score
ATATCCGG | 0.0805
AAATTTCA | -0.104
ATACTTGG | -0.0999
CTTGCGCC | 0.0664
CTAAGTCA | -0.00395
AACACCGC | 0.073
CTGGATTA | -0.0618
CTTGGAAC | -0.0241

Mixed results
Substance | target | test | system | setting | scale | measurement | result
PhoQ, residues 284 288 289 292 302 303 TTCLQL | PhoP, residues 12 14 15 18 19 LFHKL (Escherichia coli, UniProt P23836) | Sort-seq, measured: YFP reporter | E. coli | PhoQ-PhoP variant library, added: 10 µM Mg2+ | relative to: high Mg2+ state, higher = stronger signaling | fold induction | 6.47

Excerpt of the above (sample 1):
Sequence | log fluorescence [z-score]
TCACTTATCCTTCCCCTACTGTGCTAG | 1.44
